Experimental data from different studies.
Parts stem from different laboratories: compare values within a part only.

Block 1 — technique: aptamer microarray, sandwich; molecule type: DNA with 2'F-ANA; medium: in vitro; tested at: 200 nM; added: Cy3 exosite-II aptamer, 400 nM; direction: higher = stronger binding; sequence: GGTTGGTGTGGTTGG
Target: Prothrombin, mature alpha-thrombin (F2, Homo sapiens, UniProt P00734)
Setting: whole 15-mer aptamer, many near background
`2'F-ANA at 4 5 7 10 12 13 14` — result for “mean fluorescence intensity”: 45.3 a.u.
`2'F-ANA at 1 3 4 5 6 9 10 11 13 14` — result for “mean fluorescence intensity”: 47.6 a.u.
`2'F-ANA at 1 5 8 9 12 13 14 15`: “mean fluorescence intensity” 45.2 a.u.
Under “mean fluorescence intensity”, `2'F-ANA at 1 5 6 7 8 9 11 15` is recorded as 65.9 a.u.
Under “mean fluorescence intensity”, `2'F-ANA at 1 4 5 9 10 15` is recorded as 286 a.u.
Under “mean fluorescence intensity”, `2'F-ANA at 5 9` is recorded as 87.9 a.u.
Under “mean fluorescence intensity”, `2'F-ANA at 5 8 9 12 13 14 15` is recorded as 48.3 a.u.
Under “mean fluorescence intensity”, `2'F-ANA at 1 4 5 9` is recorded as 58.1 a.u.
Under “mean fluorescence intensity”, `2'F-ANA at 1 4 7 8 12 14 15` is recorded as 74.3 a.u.
`2'F-ANA at 2 8 10 11 14` — result for “mean fluorescence intensity”: 75.8 a.u.
`2'F-ANA at 1 2 4 5 9 10 11 12 14` — result for “mean fluorescence intensity”: 48.4 a.u.
`2'F-ANA at 2 6 10 11 14` — result for “mean fluorescence intensity”: 80.7 a.u.
Under “mean fluorescence intensity”, `2'F-ANA at 2 5 8 11 12 13 14 15` is recorded as 47.4 a.u.
`2'F-ANA at 1 2 5 7 8 10 13 14 15` — result for “mean fluorescence intensity”: 46.9 a.u.
Under “mean fluorescence intensity”, `2'F-ANA at 1 2 5 8 9 12 14 15` is recorded as 57.6 a.u.
For `2'F-ANA at 2 3 5 8 9 10 11 14 15`, “mean fluorescence intensity” read 102 a.u.
For `2'F-ANA at 1 3 10 11`, “mean fluorescence intensity” read 74.6 a.u.
For `2'F-ANA at 1 2 3 4 5 6 9 10 11 12 14`, “mean fluorescence intensity” read 48.8 a.u.
Under “mean fluorescence intensity”, `2'F-ANA at 1 2 3 4 5 6 7 11 13 15` is recorded as 50.4 a.u.
`2'F-ANA at 2 5 8 10 11 12 14`: “mean fluorescence intensity” 46.5 a.u.
`2'F-ANA at 2 3 6 8 9 13 14 15` — result for “mean fluorescence intensity”: 307 a.u.
`2'F-ANA at 2 3 6 11 14 15` — result for “mean fluorescence intensity”: 441 a.u.

Block 2 — technique: protein binding microarray; molecule type: double-stranded DNA, one strand shown; medium: in vitro; tested at: not given; relative to: not given; direction: higher = stronger binding
Target: Histone acetyltransferase KAT6A, both winged helices, GST fusion (KAT6A, Homo sapiens, UniProt Q92794, residues 1-181)
Setting: 8-mer, flanks averaged, mean of 2 arrays, mostly near background
Residues (chain): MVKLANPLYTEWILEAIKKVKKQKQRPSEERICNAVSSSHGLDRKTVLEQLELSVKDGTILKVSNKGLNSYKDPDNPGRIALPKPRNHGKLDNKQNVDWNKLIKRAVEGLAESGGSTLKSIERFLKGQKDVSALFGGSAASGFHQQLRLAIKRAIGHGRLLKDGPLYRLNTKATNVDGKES
With `CAAACAAC` the E-score was -0.00697.
`CAAGTGTA` gave an E-score of -0.153.
The E-score of `CTACAGGA` is reported as -0.153.
For `CGCATACA`, the E-score was 0.21.
The E-score of `CAGAGAAG` is reported as -0.0835.
`ACGTGTCG` has an E-score of 0.00152.
`ACTGAGCA` gave an E-score of -0.0499.
The E-score of `CAAAGCCA` is reported as -0.261.
`CATGCGTC` has an E-score of 0.128.
`TCGGTGAA` gave an E-score of 0.0682.
`ACCTGACG` has an E-score of 0.0201.
For `ACCTCGAA`, the E-score was -0.121.
The E-score of `ATGCGCAA` is reported as 0.265.
The E-score of `GACATCCC` is reported as 0.0843.
The E-score of `CAACGATG` is reported as -0.246.
The E-score of `AGTCCTAG` is reported as -0.258.
`ACTTACTG` has an E-score of -0.0306.
With `AACCTTTG` the E-score was -0.046.
`AATCCACA` has an E-score of -0.125.
`TGCTTTAA` has an E-score of -0.0453.

Block 3 — technique: RNA Bind-n-Seq; molecule type: RNA; medium: in vitro; tested at: 200 nM; setting: whole 134-nt RNA, ends assumed; added: 150 mM LiCl; relative to: input library; direction: higher = stronger binding; all molecules: 7-deaza-guanosine replaces G
Target: Fragile X messenger ribonucleoprotein 1, C-terminal low-complexity region (Fmr1, Mus musculus, UniProt P35922)
All sequences stand within: GGGAGUUCUACAGUCCGACGAUC … UGGAAUUCUCGGGUGUCAAGG
`UGUACUGAUGACAGCUAAUCUCUGAAUCUUUUUCCUCCAGGAUGUUCCUUCAGGAGGAAGCAGCACUAAAAGCACUCUGAGUCAAGAUGA` gave a log2 enrichment of 0.216.
With `UUAGGGUCAUGUGAAGGUGGUGCGCUACUUAGUCAAAGAAGUCAAUCAGUUUCCAUCAGAUUCUGAAUGUAUGAGAUACAUAGCAACCAU` the log2 enrichment was -1.79.
For `GUCCUGUGCUACACAUCGUAUGUACCGAAUCGGGGAAAAAGGGGAAAAAGGGGUGGGGAAAGUAUUAUGUUACGCCGUUCGGAUCUGCAC`, the log2 enrichment was -0.717.
`CCUCAAGUCCUGUGCUACACAUCGUAUGUACCGAAUCGGUGGAAAAAGGUGGAAAGUAUUAUGUUACGCCGUUCGGAUCUGCACUUCCAG` has a log2 enrichment of 0.399.
`CACAGACAACACGCACCCACACAGACACAGAAAGAAGGGGUUGGGAUGGGGACAGGGUGCACAGCAGGGCGGGGUAGGACCCCAGCCCCU` gave a log2 enrichment of 0.454.
For `ACCAUGCAGGUGGGCAUCUUUGGGAAGUGGGGCAAGGGGGGGAUAGGGAGGGGGGUAACACUUUGGGAACAGGUGGUUCCAGGUCGUUUC`, the log2 enrichment was 1.32.
`CCUGUGCUACACAUCGUAUGUACCGAAUCGGCCCCCCCGGCCCCCCCGGCCCCCCCGGGGAAAGUAUUAUGUUACGCCGUUCGGAUCUGC` has a log2 enrichment of 1.
`GUCCUGUGCUACACAUCGUAUGUACCGAAUCGGGUUUUUUGGUUUUUUGGUUUUUUGGGAAAGUAUUAUGUUACGCCGUUCGGAUCUGCA` has a log2 enrichment of -1.43.

Block 4 — technique: RNA Bind-n-Seq; molecule type: RNA; medium: in vitro; tested at: 365 nM; relative to: no-protein control; direction: higher = stronger binding
Target: RNA binding protein fox-1 homolog 2, RRM domain, GST-SBP tag (RBFOX2, Homo sapiens, UniProt O43251-10, residues 100-194)
Setting: natural RNA segment, single round, ends assumed
All sequences stand within: GGGAGUUCUACAGUCCGACGAUC … UGGAAUUCUCGGGUGCCAA
Residues (chain): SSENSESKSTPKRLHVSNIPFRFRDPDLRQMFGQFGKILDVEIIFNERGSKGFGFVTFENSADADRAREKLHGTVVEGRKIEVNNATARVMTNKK
`AGCGAUCAGAGUAUGUCUUGUGUGUGAGAGUGAGCCUUACAAUCAUGUCCACUGAAGCCACUGGCAGUGGCUCCCAACCCCCAUCCCAUUAGAAGGGACUUGGCCUGCCC` — result for “RBNS enrichment (R)”: 0.379.
`UCACCAUGUGAACAUAGUACCUCAGUUCUGUCCUUGGCUGCAAUCGUUGUGUGCUCAGUGUUUUCUCAUAGGCACCAGGGACAGGCUUCUCAAGGCAGUAUGAUAUACCC` — result for “RBNS enrichment (R)”: 0.576.
`CAGAAAUAAGAACUUCAGGACCACGUGGCUUUGCAUAUACAGAGCUUAACAAGCUUUGAGAAACUCAUAAGGUUCAAGUCACCUUCAAAAGAAAGGUACAAUGGAAACAC`: “RBNS enrichment (R)” 0.396.
`GACUGUCUGUCUGUCCAGUAAGGAUUUCUGCCCCCAUCUAAUUGUGUGGCACCCAGUUUUUCCAUGUAGGUCAUUAUACCUGGAUGAUAACAUCAAUUUAGUUACAAUGC` — result for “RBNS enrichment (R)”: 0.272.
For `AGUGUGCCUGUGUAUAUAACUCUGUAAAGACACUGAAAAUUAUACUAACUUAUUUAUGUUAAAAAGAGAUUUUUUUUUAAUCUAGACAAUAUACAAGCCAAAGUGGCAUG`, “RBNS enrichment (R)” read 0.522.
Under “RBNS enrichment (R)”, `UUAAAUACAGUCUUCCAUUUGCAAGGGAAAAGUCUCUUGUAAUCCGAAUCUCUUUUUGCUUUCGAACUGCUAGUCAAGUGCGUCCACGAGCUGUUUACUAGGGAUCCCUC` is recorded as 0.228.
`AUACUGCUCUACUGCACUUAGACUCUCCACUCACAGAUAAGUCUUGUCUGUUAGUAGUGCUGUAGAUUAAGUCUUUCCAAAGCACCUAGGCAGUGCACCUAUUCUGUAGU`: “RBNS enrichment (R)” 0.303.
For `CUACAGUUUGUUUAGGAGGCCCUGACCUUCAUGGUGUCUUUGAAGCCCAACCACUCGGUUUCCUUCGGAUUUUCCUCCCUUUGUUCGGGGUUUGGUUUGGCUCCUCUGUG`, “RBNS enrichment (R)” read 1.28.
